Measurements of several laboratories.
Compare with care: the assays were run in different laboratories. “And” joins repeats or separate records; there may be more than shown. Numbers after ± are the reported error.

CCCCc1oc2ccccc2c1C(=O)c1cc(I)c(OCCN(CC)CC)c(I)c1
heart rate (male Hartley guinea pigs, anaesthetized; intravenous, 20 mg/kg over 10 min, after infusion): 179 ± 0.6 beats/min

Cl.[2H]C([2H])([2H])CC(=O)c1cnc(NC(=O)C2CC2)cc1Nc1cccc(-c2ncn(C([2H])([2H])[2H])n2)c1OC
Tmax (human, fed, multiple dose; oral, 60 mg once daily, tablet, day 14, median): 2.09 h

CCN1/C(=C/C(C)=O)Sc2ccc(F)cc21
diastolic blood pressure (cynomolgus monkey; oral, 30 mg/kg, 6 h post-dose): 76 ± 3 mmHg

O=C(O)c1ccccc1O
CSF concentration (human CSF; concentration not given, mean): not detected

CNc1ccc(-c2nc3ccc(O)cc3s2)cc1 [carbon-11 labelled]
uptake (ex vivo biodistribution; normal B6SJL mice, adipose; intravenous, 30 min): 0.406 ± 0.061 SUV

CC(=O)N(C)[C@H]1CCN(C(=O)c2cnc3c(c2)C[C@](C)(c2ccc(F)cc2)N3)C1
adverse event duration (refers to: Lightheadedness; human; oral, 15 mg once daily): 1 days

O=C1Cc2cc(CCN3CCN(c4nsc5ccccc45)CC3)c(Cl)cc2N1
heart rate (male Hartley guinea pigs, anaesthetized; intravenous, 0.1 mg/kg over 10 min, after infusion): 206 ± 0.4 beats/min

Cc1c(-c2ccc(N3CCc4cccc(C(=O)Nc5nc6ccccc6s5)c4C3)nc2C(=O)O)cnn1CC12CC3(C)CC(C)(C1)CC(OCCNCC[C@H](O)CO)(C3)C2
plasma concentration (anaesthetized male beagle dog; iv infusion, 0.1 mg/kg/min, 120 min): < 4 ng/mL

CCn1c(C(=O)N(C2CC2)C2CC2)cc2c3c(ncn3C)c(Nc3cc(C)n(C)n3)nc21
plasma concentration (cancer patients; oral, 200 mg single dose, day 1, 24.0 h): 181 ng/mL

COc1ccc(CNc2nc(-c3ccc(C(=O)O)cc3)nc3c2c2ccccc2n3C)cc1Cl
body weight (NSG mice; dose not given, day 1 of treatment): 20.7 g and 21.4 g and 23.5 g and 22.6 g

C=CC(=O)NC1CCN(c2ncc3ncnc(Nc4ccc(Oc5ccc6c(c5)ncn6C)c(C)c4)c3n2)CC1
parent share of total radioactivity (healthy male volunteers, urine; oral, 60 mg, 14C-labelled): ~10%

COc1cc(C2=CCCc3c2ccc(OC)c3OCc2cnc([N+](=O)[O-])n2C)cc(OC)c1OC
parent drug release (non-enzymatic, no POR; phosphate buffer; 24 h, pH 7.4): 0%

CCc1cc(C(=O)NC)c2nccc(N3CCc4c(cc(Cn5ccnc5)cc4-c4cn(C)nc4C(F)(F)F)C3=O)c2c1
serum CK activity (Sprague Dawley rats; oral, 50 mg/kg once daily, 7 days): 109 ± 13.9 U/L

Cc1ccc(C(=O)N(CCCN)C(c2nc3snc(C)c3c(=O)n2Cc2ccccc2)C(C)C)cc1 (stereo not drawn)
patients with adverse event (pneumonia grade ≥3 (CTCAE); human patients; intravenous, 18 mg/day): 0%

C[C@@H](Nc1cc(F)cc(F)c1)c1cc(C(=O)N(C)C)cc2c(=O)cc(N3CCOCC3)oc12
treatment-related serious adverse events (refers to: drug-induced liver injury; patients with advanced solid tumours; oral, dose not given, dose finding phase I): 0%

C[C@H]1O[C@@H](O[C@H]2[C@@H](O)C[C@H](O[C@H]3[C@@H](O)C[C@H](O[C@H]4CC[C@@]5(C)[C@H](CC[C@@H]6[C@@H]5C[C@@H](O)[C@]5(C)[C@@H](C7=CC(=O)OC7)CC[C@]65O)C4)O[C@@H]3C)O[C@@H]2C)C[C@H](O)[C@@H]1O
subjects with adverse event (refers to: toothache; healthy men; oral, dose not given, 8 days, treatment-emergent, crossover trial): 0%

Cc1cc(C)c(CNC(=O)c2cc(Cl)c3c(c2C)O[C@@](C)([C@H]2CC[C@H](N(C)C)CC2)O3)c(=O)[nH]1
adverse event Anemia (relapsed/refractory NHL patients; oral, 200 mg once daily, onset after cycle 1 day 1): 45.8%

CC(C(=O)NCC(=O)NCC(CNC(=O)CNC(=O)C(C)N1CCN(CC(=O)[O-])CCN(CC(=O)[O-])CCN(CC(=O)[O-])CC1)(CNC(=O)CNC(=O)C(C)N1CCN(CC(=O)[O-])CCN(CC(=O)[O-])CCN(CC(=O)[O-])CC1)CNC(=O)CNC(=O)C(C)N1CCN(CC(=O)[O-])CCN(CC(=O)[O-])CCN(CC(=O)[O-])CC1)N1CCN(CC(=O)[O-])CCN(CC(=O)[O-])CCN(CC(=O)[O-])CC1.[Gd+3].[Gd+3].[Gd+3].[Gd+3] (stereo not drawn)
lanthanide tissue concentration (cynomolgus monkey, cerebellum; dose not given, day 5): 0.031 ± 0.008 nmol/g

O=C(O)c1ccc(O)cc1O
CSF concentration (human CSF; concentration not given, mean): not detected

COc1ccc([C@@H](O)c2cc(-c3ncnc4cc(N5CCOCC5)ccc34)c(F)cc2Cl)nn1
drug-related adverse events, general disorders (locally advanced rectal cancer; all dose levels overall, added: capecitabine and radiotherapy): 47%

O=C(OC(C(F)(F)F)C(F)(F)F)N1CCN(Cc2cccc(Oc3ccccc3)c2)CC1
Ktrans (PET blocking study; rhesus monkey, brain HIP; 0.3 mg/kg, compound pretreatment, added: [18F]T-401 tracer): 0.0635 min⁻¹

CN1C(=O)[C@@H](NC(=O)c2nnc(Cc3ccccc3)[nH]2)COc2cccnc21
Tmax (human, plasma; oral, 600 mg once daily, day 1, median): 3.5 h

C[C@@H](Oc1ccc(S(C)(=O)=O)cc1C(=O)N1C[C@@H]2C[C@]2(c2cc(C(F)(F)F)on2)C1)C(F)(F)F
incidence of Headache (human; oral, 25 mg): 50%

Cc1nc2cccc(OCC(C)(C)C(=O)NC(C)C)c2c(N)c1C(=O)O
Cmax ratio female over male (Sprague-Dawley rat, plasma; oral, 10 mg/kg, day 1; reference: female over male): 2.64 ± 0.56

C=CCN1CC(=O)N2[C@@H](Cc3ccc(O)cc3F)C(=O)N(Cc3cccc(N4CC(N5CCN(CC)CC5)C4)n3)C[C@@H]2N1C(=O)NCc1ccccc1
treatment-related adverse events (refers to: Nausea; advanced solid tumour patients; oral, 100 mg twice daily, expansion part, any grade): 77.8%

Cc1cc(Nc2ncnc3ccc(NC4=NC(C)(CO)CO4)cc23)ccc1Oc1ccn2ncnc2c1 (stereo not drawn)
AUC(0-t) (arithmetic mean) (human, plasma; oral, 300 mg tucatinib single dose, day 1, tucatinib alone): 463 ng·h/mL

CN(C(=O)n1cnc(-c2ccc[n+]([O-])c2)c1)[C@H]1CC[C@H](O)CC1
tissue concentration (rat, cerebellum; oral, 10 mg/kg daily for 5 days, 24 h): 8.2 ± 0.3 ng/g

O=Cc1ccc(O)c(O)c1
CSF concentration (human CSF; concentration not given, mean): not detected

COc1ccc(-n2nc(C(N)=O)c3c2C(=O)N(c2ccc(N4CCCCC4=O)cc2)CC3)cc1
ED50 (human, plasma; oral, Base population PK model): 25.4 ± 5.43 mg

C=CC(=O)Nc1cc(Nc2nccc(-c3cn(C4CC4)c4ccccc34)n2)c(OC)cc1N(C)CCN(C)C
MCHC (BALB/c nude mouse, LU0387 xenograft, blood; oral, 40 mg/kg): 333.8 ± 3.25 g/L

Cn1cnc2c(F)c(Nc3ccc(Br)cc3Cl)c(C(=O)NOCCO)cc21
peripheral volume of distribution (human, plasma; oral, dose not given, transit compartment absorption): 190 L

Cc1cc(-c2nccc3c2ccn3CC(=O)Nc2ccc(-c3cnccn3)cn2)ccn1
respiratory thoracic mediastinal TEAEs (healthy human volunteers; oral, 5 mg once daily, 14 days, multiple ascending dose): 12.5%

C[C@@H](O)CCOC(=O)C[C@@H](C)O
systolic blood pressure (human; oral drink, dose not given, 90 min post dose, mean): 112 mmHg

CCOc1c([C@H](C)n2nc(C)c3c(N)ncnc32)cc(Cl)c(F)c1[C@@H]1CNC(=O)C1
half-life (patients with B-cell malignancies, plasma; oral, 30 mg, day 15, all cohorts, monotherapy): 10.2 ± 3 h

OC[C@H]1O[C@@H](c2ccc(Cl)c(Cc3ccc(O[C@H]4CCOC4)cc3)c2)[C@H](O)[C@@H](O)[C@@H]1O
change in eGFR (Japanese type 1 diabetes patients, blood; 25 mg, day 28; reference: baseline): -0.52 mL/min/1.73 m²

CN(C(=O)n1cnc(-c2cccnc2)c1)[C@H]1CC[C@H](O)CC1
tissue concentration (rat, cerebellum; oral, 10 mg/kg single dose, 1 h): 15.2 ± 0.9 ng/g

NCc1ccc(-c2nn(Cc3ccncc3)c3ccccc23)o1
volume of distribution at steady state (male CD1 mouse, plasma; intravenous, 5 mg/kg): 17.3 L/kg

Oc1ccc(/C=C/c2cc(O)cc(O)c2)cc1
LDL-C level (rat, azoxymethane-injected, blood; in vivo, 100 mg/kg, at sacrifice): 3 mg/dL

C=CC(=O)NC1CCN(c2ncc3ncnc(Nc4ccc(Oc5ccc6c(c5)ncn6C)c(C)c4)c3n2)CC1
participants with treatment-related AE (healthy male humans; oral, 240 mg): 31.3%

C[C@H](CS)C(=O)N1CCC[C@H]1C(=O)O
heart rate (male Hartley guinea pigs, anaesthetized; intravenous, 3 mg/kg over 10 min, after infusion): 217 ± 0.4 beats/min

N#Cc1ccc2c(c1)[C@H]1CCCN(C(=O)c3ccc4[nH]cnc4c3)[C@H]1C2
cortisol level change (human; 360 mg, end of trial; reference: baseline): -35 nmol/L

CCC(C)n1ncn(-c2ccc(N3CCN(c4ccc(OCC5COC(Cn6cncn6)(c6ccc(Cl)cc6Cl)O5)cc4)CC3)cc2)c1=O (stereo not drawn)
incidence of feeling hot (healthy human volunteers; oral, 200 mg, compound alone cohort): 0%

CCn1cc(C(=O)N2CCOCC2)c(=O)c2cc(NC3Cc4ccccc4C3)cnc21
half-life (human, fed; oral suspension, 600 mg/day twice daily, day 1, arithmetic mean): 3.43 h

COc1cc(C(=O)NC2CCN(C)CC2)c(F)cc1Nc1ncc(C(F)(F)F)c(Oc2cccc3c2C(=O)N(C)C3)n1
dose-normalised AUC(0-inf) (human patients, plasma; oral, 10 mg single dose, geometric mean): 52.7 nmol·h/L per mg

COc1ccc([C@@H]2CC(=O)c3c(O)cc(O)cc3O2)cc1O
CSF concentration (human CSF; concentration not given, mean): not detected

O=C1c2ccncc2C(=O)c2c1[nH]c1ccccc21
tissue concentration (Sprague-Dawley rat, male, lung; intravenous, 5 mg/kg, 24 h): 0.441 ± 0.015 nmol/mg

CC(C)C[C@H](NC(=O)CNC(=O)c1cc(Cl)ccc1Cl)B(O)O
adverse events grade 3 (newly diagnosed multiple myeloma patients; oral, dose not given, Fatigue, maintenance): 0%

CNC(=O)c1ccc(-c2cnc3ncc(Cc4ccc5ncccc5c4)n3n2)cc1F
AST increased incidence (cancer patients; oral, 600 mg twice daily, all grades RP2D expansion): 16%

COc1cc(Nc2ncc3c(n2)-c2ccc(Cl)cc2C(c2c(F)cccc2OC)=NC3)ccc1C(=O)O
patients with skin hyperpigmentation (cancer patients; oral, dose not given, grade 3 any attribution, added: pembrolizumab): 4%

Cc1ccc([C@@H]2O[C@H](CO)[C@@H](O)[C@H](O)[C@H]2O)cc1Cc1ccc(-c2ccc(F)cc2)s1
urinary chloride excretion change (Japanese type 2 diabetes patients; 25 mg, day 1, 24 h urine collection; reference: baseline): 23.7 mEq

O=C(CCCN1CC=C(n2c(=O)[nH]c3ccccc32)CC1)c1ccc(F)cc1
heart rate (male Hartley guinea pigs, anaesthetized; intravenous, 0.03 mg/kg over 10 min, after infusion): 247 ± 0.9 beats/min

CC(C)(C)c1ccc(O)c(CN(Cc2cc(C(C)(C)C)ccc2O)C2CCC(NC(N)=O)CC2)c1 (stereo not drawn)
terminal elimination rate constant (C57BL/6 mice, male, brain; intraperitoneal, 10 mg/kg, single dose): 2.72e-05 s⁻¹

CC(C)NC(=O)COc1cccc(-c2nc(Nc3ccc4[nH]ncc4c3)c3ccccc3n2)c1
AUC(0-tau) (human, male, fed, plasma; oral, 200 mg, day 3, geometric mean): 9330 ng·h/mL

O=C(O)CSc1nnc(Br)n1-c1ccc(C2CC2)c2ccccc12
body weight (KM mouse, chronic hyperuricaemia model; dose not given, day 4): 29.2 g and 27.8 g and 28.7 g and 31 g and 24.2 g and 25.1 g

O=C(O)CCC(=O)O.[2H]C([2H])([2H])Oc1cc(C)c2[nH]ccc2c1CN1CC[C@@H](C2CC2)C[C@H]1c1ccc(C(=O)O)cc1
subjects with any TEAE (multiple ascending dose; healthy Chinese subjects; 200 mg once daily): 75%

COC(=O)N[C@H](C(=O)N[C@@H](Cc1ccccc1)[C@@H](O)CN(Cc1ccc(-c2ccccn2)cc1)NC(=O)[C@@H](NC(=O)OC)C(C)(C)C)C(C)(C)C
plateau flux concentration (modified PAMPA Franz cell; phosphate buffer with HPMCAS; 3 h, 300 rpm, 460 nm particles, added: no BSA): 147 µg/mL

O=C1NCCc2nc(OCc3cccc(F)c3)ccc21
leg weakness score (modified Irwin test; Sprague-Dawley rat, male; oral, 100 mg/kg, 1 h; higher = stronger effect): 0

For quick reference, copied from above:
C[C@@H](Nc1cc(F)cc(F)c1)c1cc(C(=O)N(C)C)cc2c(=O)cc(N3CCOCC3)oc12
treatment-related serious adverse events (refers to: drug-induced liver injury; patients with advanced solid tumours; oral, dose not given, dose finding phase I): 0%

C[C@H]1O[C@@H](O[C@H]2[C@@H](O)C[C@H](O[C@H]3[C@@H](O)C[C@H](O[C@H]4CC[C@@]5(C)[C@H](CC[C@@H]6[C@@H]5C[C@@H](O)[C@]5(C)[C@@H](C7=CC(=O)OC7)CC[C@]65O)C4)O[C@@H]3C)O[C@@H]2C)C[C@H](O)[C@@H]1O
subjects with adverse event (refers to: toothache; healthy men; oral, dose not given, 8 days, treatment-emergent, crossover trial): 0%

Cc1cc(C)c(CNC(=O)c2cc(Cl)c3c(c2C)O[C@@](C)([C@H]2CC[C@H](N(C)C)CC2)O3)c(=O)[nH]1
adverse event Anemia (relapsed/refractory NHL patients; oral, 200 mg once daily, onset after cycle 1 day 1): 45.8%

CC(C(=O)NCC(=O)NCC(CNC(=O)CNC(=O)C(C)N1CCN(CC(=O)[O-])CCN(CC(=O)[O-])CCN(CC(=O)[O-])CC1)(CNC(=O)CNC(=O)C(C)N1CCN(CC(=O)[O-])CCN(CC(=O)[O-])CCN(CC(=O)[O-])CC1)CNC(=O)CNC(=O)C(C)N1CCN(CC(=O)[O-])CCN(CC(=O)[O-])CCN(CC(=O)[O-])CC1)N1CCN(CC(=O)[O-])CCN(CC(=O)[O-])CCN(CC(=O)[O-])CC1.[Gd+3].[Gd+3].[Gd+3].[Gd+3] (stereo not drawn)
lanthanide tissue concentration (cynomolgus monkey, cerebellum; dose not given, day 5): 0.031 ± 0.008 nmol/g

O=C(O)c1ccc(O)cc1O
CSF concentration (human CSF; concentration not given, mean): not detected
